# Assay results gathered from unrelated publications.
# Each line is one published result; not all experiments were run side by side. Values joined by “and” are separate records of one study, mostly repeats; a detail may differ. ± gives the spread as reported.
# KCNH2: Voltage-gated inwardly rectifying potassium channel KCNH2 (KCNH2, Homo sapiens, UniProt Q12809)
# UniProt Q12809, sequence (whole entry, looked up): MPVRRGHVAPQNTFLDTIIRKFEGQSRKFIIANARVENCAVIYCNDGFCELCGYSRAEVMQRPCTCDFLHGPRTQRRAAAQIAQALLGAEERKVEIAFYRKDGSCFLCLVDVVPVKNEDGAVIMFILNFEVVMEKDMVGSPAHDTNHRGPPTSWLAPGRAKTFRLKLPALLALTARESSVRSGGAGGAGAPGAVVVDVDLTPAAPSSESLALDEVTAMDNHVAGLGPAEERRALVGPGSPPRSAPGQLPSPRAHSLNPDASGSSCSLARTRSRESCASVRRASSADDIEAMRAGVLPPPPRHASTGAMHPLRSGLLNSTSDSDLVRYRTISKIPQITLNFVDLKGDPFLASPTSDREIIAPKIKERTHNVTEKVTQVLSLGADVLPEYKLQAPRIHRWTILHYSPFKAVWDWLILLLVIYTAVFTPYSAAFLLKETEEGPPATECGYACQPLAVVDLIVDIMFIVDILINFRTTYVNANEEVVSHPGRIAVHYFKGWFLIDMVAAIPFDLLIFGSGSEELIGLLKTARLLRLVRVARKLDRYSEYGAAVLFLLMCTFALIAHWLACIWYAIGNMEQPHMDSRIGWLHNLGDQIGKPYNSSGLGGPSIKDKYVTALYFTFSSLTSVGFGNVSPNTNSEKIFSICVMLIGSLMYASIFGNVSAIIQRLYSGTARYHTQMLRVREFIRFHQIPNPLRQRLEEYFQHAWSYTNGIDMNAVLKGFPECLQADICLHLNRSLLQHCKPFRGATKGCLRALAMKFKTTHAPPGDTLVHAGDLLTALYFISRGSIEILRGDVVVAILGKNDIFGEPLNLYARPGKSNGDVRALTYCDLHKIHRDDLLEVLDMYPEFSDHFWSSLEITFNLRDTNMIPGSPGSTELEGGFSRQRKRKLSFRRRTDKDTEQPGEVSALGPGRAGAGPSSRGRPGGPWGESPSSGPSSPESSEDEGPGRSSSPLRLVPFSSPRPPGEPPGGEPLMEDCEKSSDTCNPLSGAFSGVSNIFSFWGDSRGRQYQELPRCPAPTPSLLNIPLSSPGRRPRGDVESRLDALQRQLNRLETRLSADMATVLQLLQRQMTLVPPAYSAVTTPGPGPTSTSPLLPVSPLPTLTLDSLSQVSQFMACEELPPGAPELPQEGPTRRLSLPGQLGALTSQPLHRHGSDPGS
# PLA2G5: Phospholipase A2 group V (PLA2G5, Homo sapiens, UniProt P39877)
# UniProt P39877, sequence (whole entry, looked up): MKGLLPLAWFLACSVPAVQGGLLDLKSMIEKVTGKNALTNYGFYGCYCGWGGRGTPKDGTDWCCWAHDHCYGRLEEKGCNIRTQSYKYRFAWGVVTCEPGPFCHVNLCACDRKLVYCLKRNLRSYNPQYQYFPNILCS
# CA1: Carbonic anhydrase 1 (CA1, Homo sapiens, UniProt P00915)
# UniProt P00915, sequence (whole entry, looked up): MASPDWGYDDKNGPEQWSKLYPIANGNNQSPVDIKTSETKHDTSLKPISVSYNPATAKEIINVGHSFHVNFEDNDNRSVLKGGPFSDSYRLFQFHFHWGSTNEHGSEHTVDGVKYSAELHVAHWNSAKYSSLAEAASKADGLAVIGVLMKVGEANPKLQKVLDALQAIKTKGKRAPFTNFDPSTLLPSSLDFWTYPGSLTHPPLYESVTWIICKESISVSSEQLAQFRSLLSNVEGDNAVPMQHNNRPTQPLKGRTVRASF
# PSMB6: Proteasome subunit beta type-6 (PSMB6, Homo sapiens, UniProt P28072)
# UniProt P28072, sequence (whole entry, looked up): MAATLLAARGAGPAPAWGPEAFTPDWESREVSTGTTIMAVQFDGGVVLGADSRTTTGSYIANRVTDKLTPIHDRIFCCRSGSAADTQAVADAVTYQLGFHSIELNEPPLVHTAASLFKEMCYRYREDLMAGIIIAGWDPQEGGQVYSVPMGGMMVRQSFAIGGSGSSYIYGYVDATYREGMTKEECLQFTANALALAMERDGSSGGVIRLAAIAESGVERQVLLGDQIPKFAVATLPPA
# Toll-like receptor 3: Toll-like receptor 3 (Homo sapiens, UniProt O15455)
# UniProt O15455, sequence (whole entry, looked up): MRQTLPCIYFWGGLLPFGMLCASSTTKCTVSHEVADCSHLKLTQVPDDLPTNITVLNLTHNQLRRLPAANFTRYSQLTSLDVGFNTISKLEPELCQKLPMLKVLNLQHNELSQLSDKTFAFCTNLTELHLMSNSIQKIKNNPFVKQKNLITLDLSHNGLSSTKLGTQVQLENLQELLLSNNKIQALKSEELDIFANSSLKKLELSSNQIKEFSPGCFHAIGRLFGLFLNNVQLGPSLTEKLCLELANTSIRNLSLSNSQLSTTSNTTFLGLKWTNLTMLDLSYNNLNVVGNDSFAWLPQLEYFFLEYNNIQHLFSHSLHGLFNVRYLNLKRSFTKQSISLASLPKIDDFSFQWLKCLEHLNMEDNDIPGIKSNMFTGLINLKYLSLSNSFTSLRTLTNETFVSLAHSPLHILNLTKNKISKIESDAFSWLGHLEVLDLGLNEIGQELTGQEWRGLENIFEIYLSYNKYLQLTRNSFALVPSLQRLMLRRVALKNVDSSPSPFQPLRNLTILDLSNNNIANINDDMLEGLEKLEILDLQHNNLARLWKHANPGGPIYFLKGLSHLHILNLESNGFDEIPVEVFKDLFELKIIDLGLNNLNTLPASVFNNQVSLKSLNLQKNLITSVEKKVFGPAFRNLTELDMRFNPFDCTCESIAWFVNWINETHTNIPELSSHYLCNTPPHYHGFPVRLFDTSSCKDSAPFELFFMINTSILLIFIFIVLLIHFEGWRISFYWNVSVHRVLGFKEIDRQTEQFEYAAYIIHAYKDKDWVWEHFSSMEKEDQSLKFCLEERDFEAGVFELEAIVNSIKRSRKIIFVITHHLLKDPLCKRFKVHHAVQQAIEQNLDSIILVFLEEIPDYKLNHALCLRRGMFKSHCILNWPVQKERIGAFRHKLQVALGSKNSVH
# CSK: Tyrosine-protein kinase CSK (CSK, Homo sapiens, UniProt P41240)
# UniProt Q9UNQ0, sequence (whole entry, looked up): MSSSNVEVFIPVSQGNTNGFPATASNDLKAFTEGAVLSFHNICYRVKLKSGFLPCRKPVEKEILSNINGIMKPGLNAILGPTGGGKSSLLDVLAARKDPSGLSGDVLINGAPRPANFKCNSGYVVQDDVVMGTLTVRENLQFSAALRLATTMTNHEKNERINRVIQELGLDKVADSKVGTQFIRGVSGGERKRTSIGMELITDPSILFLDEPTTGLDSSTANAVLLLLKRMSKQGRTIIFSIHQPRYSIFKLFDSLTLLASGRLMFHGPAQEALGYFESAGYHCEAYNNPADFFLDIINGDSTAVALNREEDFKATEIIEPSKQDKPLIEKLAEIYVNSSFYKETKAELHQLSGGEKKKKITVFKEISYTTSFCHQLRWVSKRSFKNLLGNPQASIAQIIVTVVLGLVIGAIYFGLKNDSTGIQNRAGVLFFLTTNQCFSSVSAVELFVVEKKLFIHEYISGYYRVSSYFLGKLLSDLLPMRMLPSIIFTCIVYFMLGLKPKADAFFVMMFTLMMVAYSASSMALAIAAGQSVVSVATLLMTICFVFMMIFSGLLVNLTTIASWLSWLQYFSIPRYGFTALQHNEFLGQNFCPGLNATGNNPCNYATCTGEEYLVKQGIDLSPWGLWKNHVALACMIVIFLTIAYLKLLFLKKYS
# UniProt P41240, sequence (whole entry, looked up): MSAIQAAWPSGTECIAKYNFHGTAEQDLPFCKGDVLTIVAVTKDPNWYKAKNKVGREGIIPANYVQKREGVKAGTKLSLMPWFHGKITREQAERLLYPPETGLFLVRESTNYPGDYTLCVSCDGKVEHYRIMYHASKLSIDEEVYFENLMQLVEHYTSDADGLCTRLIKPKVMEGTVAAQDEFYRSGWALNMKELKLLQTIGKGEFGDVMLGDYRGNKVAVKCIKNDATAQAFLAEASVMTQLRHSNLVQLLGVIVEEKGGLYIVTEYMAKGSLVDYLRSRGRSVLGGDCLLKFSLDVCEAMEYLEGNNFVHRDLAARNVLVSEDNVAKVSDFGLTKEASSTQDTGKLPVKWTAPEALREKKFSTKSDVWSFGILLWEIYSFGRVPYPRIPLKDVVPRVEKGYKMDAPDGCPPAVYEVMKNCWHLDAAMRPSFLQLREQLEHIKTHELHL
# UniProt Q70CQ1, sequence (whole entry, looked up): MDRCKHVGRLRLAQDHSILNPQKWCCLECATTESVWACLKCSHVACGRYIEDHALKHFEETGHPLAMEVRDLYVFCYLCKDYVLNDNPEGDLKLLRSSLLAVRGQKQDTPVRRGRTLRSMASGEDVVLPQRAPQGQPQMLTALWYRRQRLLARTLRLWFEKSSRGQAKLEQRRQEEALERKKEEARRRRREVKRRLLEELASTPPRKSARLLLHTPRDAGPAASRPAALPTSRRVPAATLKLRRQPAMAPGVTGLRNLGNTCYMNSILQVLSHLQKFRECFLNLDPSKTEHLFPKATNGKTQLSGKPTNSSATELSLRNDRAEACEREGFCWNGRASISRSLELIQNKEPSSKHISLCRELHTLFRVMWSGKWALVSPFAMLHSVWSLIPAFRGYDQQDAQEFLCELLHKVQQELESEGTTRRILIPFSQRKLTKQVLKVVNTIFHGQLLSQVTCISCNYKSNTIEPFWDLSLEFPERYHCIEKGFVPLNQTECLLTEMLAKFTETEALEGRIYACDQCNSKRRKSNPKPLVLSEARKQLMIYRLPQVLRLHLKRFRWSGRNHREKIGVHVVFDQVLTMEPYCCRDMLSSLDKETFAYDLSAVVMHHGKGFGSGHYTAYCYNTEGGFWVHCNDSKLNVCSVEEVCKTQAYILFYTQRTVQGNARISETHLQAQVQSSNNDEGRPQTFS
# UniProt P28222, sequence (whole entry, looked up): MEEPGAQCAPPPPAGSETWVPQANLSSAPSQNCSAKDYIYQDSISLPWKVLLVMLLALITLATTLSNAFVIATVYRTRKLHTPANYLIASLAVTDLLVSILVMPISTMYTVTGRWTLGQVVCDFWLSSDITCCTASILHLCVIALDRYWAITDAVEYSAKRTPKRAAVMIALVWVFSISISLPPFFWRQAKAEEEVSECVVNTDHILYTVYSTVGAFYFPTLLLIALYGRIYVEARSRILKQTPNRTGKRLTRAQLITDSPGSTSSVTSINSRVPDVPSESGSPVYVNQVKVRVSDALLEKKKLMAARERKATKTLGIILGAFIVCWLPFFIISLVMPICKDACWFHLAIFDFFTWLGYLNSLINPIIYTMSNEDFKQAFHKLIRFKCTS
SMILES,target,test,system,conditions,scale,endpoint,value
CC1(F)CN(C(=O)Cn2c(=O)c(C(=O)NCc3ccc(Cl)cc3)cc3nc(N4CCN(CC(=O)O)C4=O)cnc32)C1,KCNH2,"ion current, automated patch clamp",,,,IC50,26.4 µM
Cc1ccc(S(=O)(=O)n2cc(/C=N/NC(=S)Nc3cccc([N+](=O)[O-])c3)c3ccccc32)cc1,mushroom tyrosinase,"enzyme activity, inhibitor",,together with: L-DOPA substrate,,IC50,6.4 ± 0.21 µM
Cc1nc2ccc(Cl)cc2c(=O)n1NC(=O)CCl,PLA2G5,"enzyme activity, inhibitor, colorimetric",,,,IC50,112 ± 1.49 µM
CC(C)CNC(=S)N/N=C/c1ccc(N2CCC(O)CC2)cc1,CA1,"enzyme activity, inhibitor",,,,IC50,0.769 µM
COc1cnc2c(cc(C(=O)NCc3ccc(Cl)cc3)c(=O)n2CC(=O)N2CC(C)(F)C2)n1,KCNH2,"potassium current, inhibitor, automated patch clamp",CHO cells expressing hERG,,,IC50,2.9 µM
Cc1ncc(C(=O)N[C@@H](CC2CCC(C3CCCCC3)CC2)C(=O)N[C@@H](CC(C)C)C(=O)N[C@H](/C=C/S(C)(=O)=O)Cc2ccc(CN)cc2)s1 (stereo partly drawn),PSMB6,competitive ABPP,Raji cell lysate,,,IC50,> 10 µM
O=C(O)CCC1=Nc2cccc3cccc(c23)N1,"Ubiquitin carboxyl-terminal hydrolase 39, ZnF-UBD domain (Homo sapiens, UniProt Q53GS9)",,,,,Kd,> 1000 µM
Cc1c2ccncc2c(C)c2c1[nH]c1ccc(CNC3CCCCC3)cc12,Toll-like receptor 3,"reporter gene, inhibitor",HEK-Blue hTLR3,together with: poly(I:C),,IC50,0.09 ± 0.01 µM
O=c1nc(SCc2cc(F)cc(C(F)(F)F)c2)nc(SCc2ccc3nc(Cl)ccc3c2)[nH]1,"TOP2A (Homo sapiens, UniProt P11388)","ATPase activity, inhibitor, competitive ATPase",,together with: 0.25 mM ATP,,IC50,22.9 µM
COc1ccc2c3c([nH]c2c1)[C@H](CC(C)C)N1C(=O)[C@H](CC(=O)NCc2ccccc2)NC(=O)[C@@H]1C3,"ABCG2 (Homo sapiens, UniProt Q9UNQ0)","inhibitor, refers to: protoporphyrin IX",A549,"2 h, together with: 1 mM ALA",,IC50,0.323 µM and 0.21 µM and 0.213 µM
Cc1ccc(NC(=O)c2ccc(C)c(C(F)(F)F)c2)cc1C#Cc1nn(C2CCC(O)CC2)c2ncnc(N)c12 (stereo not drawn),"KIT (Homo sapiens, UniProt P10721)","inhibitor, radiometric kinase",,together with: ATP 10 µM,,IC50,3.16 µM
COc1cc2c(cc1OC)C1CC(=O)C(CC(C)C)CN1CC2 (stereo not drawn),"SLC18A2 (Homo sapiens, UniProt Q05940, L37F)","FFN206 uptake, inhibitor, fluorescence imaging",,"L37F mutant, together with: FFN206 5 µM",,IC50,0.0824 µM
C#CCC(N)C(=O)O (racemic),"cystathionine gamma-lyase (Toxoplasma gondii, UniProt A0A125YN40)","cysteine formation, inhibitor, HPLC",,,,IC50,20 ± 4 µM
COc1ccc(F)cc1C(=O)NCc1ccc(-c2nn([C@@H](C)C(F)(F)F)c(N)c2C(N)=O)cc1,CSK,"target engagement, NanoBRET tracer displacement",HEK293,,above top tested dose,IC50,> 5 µM
CN1CCN(c2ccc(Nc3ncc4cc(C#N)c(=O)n(C5CCCC5)c4n3)cc2)CC1,"IRAK1 (Homo sapiens, UniProt P51617)",,,,,IC50,1.79 µM
Cc1c2ccncc2c(C)c2c1[nH]c1ccc(F)cc12,Toll-like receptor 3,"reporter gene, inhibitor",HEK-Blue hTLR3,together with: poly(I:C),,IC50,1.01 ± 0.15 µM
C[C@H]1[C@H](F)C[C@@H](C(=O)NCc2cc(-c3cnc(C(F)(F)F)nc3)ncc2C(F)(F)F)N1S(=O)(=O)c1ccc(F)cc1,"TRPC6 (Homo sapiens, UniProt Q9Y210)","membrane potential, antagonist",human cells,together with: carbachol 75 µM,,IC50,> 20 µM
[Fe+2].c1ccc(CN(CCN(Cc2ccccn2)Cc2ccccn2)Cc2ccccn2)cc1,"Proteasome subunit beta type-6, caspase-like site (PSMB6, Homo sapiens, UniProt P28072)","caspase-like activity, inhibitor, purified 20S proteasome",,"pH 7.4, together with: 20 µM Z-LLE-AMC",,IC50,> 1000 µM
Cc1cc(N2CCc3c(c(C)nn3CC34CCC(NC(=O)[C@@H]5COCCN5)(CC3)CC4)C2)c2cnn(C)c2n1,"TLR7 (Homo sapiens, UniProt Q9NYK1)","IFNα release, antagonist","SLE patients, whole blood",together with: ssRNA,,IC50,0.008 ± 0.006 µM
COc1ccc2cc(/C=N/n3c(C)nc4ccc(Br)cc4c3=O)ccc2c1,PLA2G5,"enzyme activity, inhibitor, colorimetric",,,,IC50,34.1 ± 1 µM
CC(=O)SCCNC(=O)CCNC(=O)[C@H](O)C(C)(C)COP(=O)(O)OP(=O)(O)OC[C@H]1O[C@@H](n2cnc3c(N)ncnc32)[C@H](O)[C@@H]1OP(=O)(O)O,"uncharacterized protein (Aspergillus fumigatus, UniProt B0XYS0)","enzyme activity, Kinase-Glo",,,,IC50,> 100 µM
C#Cc1ccc(Oc2ccnc(N3CCC(NC(=S)Nc4cccnc4)CC3)c2Cl)c(Cl)c1,"Abhd12 (Mus musculus, UniProt Q99LR1)","lyso-PS hydrolysis, inhibitor",HEK293T transfected membrane lysate,together with: lyso-PS,,IC50,0.072 µM
O=C1C(=O)N(Cc2ccc(Cc3ccc(CN4C(=O)C(=O)c5ccccc54)cc3)cc2)c2ccccc21,"Replicase polyprotein 1ab, 3C-like proteinase (Feline coronavirus, UniProt Q98VG9)","protease activity, inhibitor",,together with: 6 µM fluorogenic substrate,,IC50,10.3 ± 2.57 µM
OC1CCN(c2ccc(/C=N/NC(=S)NCc3ccccc3)cc2)CC1,CA1,"enzyme activity, inhibitor",,,,IC50,0.545 µM
O=C(O)CCOc1ccccc1,"Ubiquitin carboxyl-terminal hydrolase 49, ZnF-UBD domain (USP49, Homo sapiens, UniProt Q70CQ1)",,,,,Kd,> 1000 µM
CC(C)C[C@H](NC(=O)c1cnccn1)C(=O)N[C@@H](C)C(=O)N[C@H](/C=C/S(C)(=O)=O)Cc1ccc(CN)cc1,PSMB6,competitive ABPP,Raji cell lysate,,,IC50,> 10 µM
COc1ccccc1N1CCN(C(=O)c2ccc(S(=O)(=O)n3cnc(C4CCCCC4)n3)cc2)CC1,"AKR1C3 (Homo sapiens, UniProt P42330)","probe labelling, competitive ABPP",COLO 205,,,IC50,0.035 µM
CC(=O)N1C[C@@H](CCN2CCC(c3c[nH]c4ccccc34)CC2)c2ccccc21,"SLC6A4 (Homo sapiens, UniProt P31645)",inhibitor,,,,IC50,1.86 µM
Cc1ccc(S(=O)(=O)n2cc(/C=N/NC(=S)NCc3ccc(Cl)cc3)c3ccccc32)cc1,mushroom tyrosinase,"enzyme activity, inhibitor",,together with: L-DOPA substrate,,IC50,13.7 ± 0.3 µM
CC(C)C[C@H](NC(=O)c1cc(Cl)ccc1Cl)C(=O)N[C@@H](CC(C)C)C(=O)N[C@H](/C=C/S(C)(=O)=O)Cc1ccc(CN)cc1,PSMB6,competitive ABPP,Raji cell lysate,,,IC50,> 10 µM
COc1ccc2c(=O)[nH]c3c(nnn3Cc3ccc(C)cc3)c2c1,"PARP15 (Homo sapiens, UniProt Q460N3)",,,,,IC50,1.51 µM
O=C(Nc1cccc2c(=O)cc(-c3nnn[nH]3)oc12)c1ccc(OCCCCc2ccccc2)cc1,"LRRC8A/LRRC8C (Homo sapiens, UniProt Q8IWT6+Q8TDW0, Y124F/Y126F)","ion current, inhibitor, whole-cell patch clamp",HCT116 LRRC8-/- transfected,at +100 mV,,IC50,28.6 µM
CC1=CC(C)=[N+]2C1=Cc1ccc(CCCCCCCCCCCCCCCC(=O)O)n1[B-]2(F)F,"EIF2AK2 (Homo sapiens, UniProt P19525, R307A)","autophosphorylation, inhibitor, Western blot",,purified mutant PKR,,IC50,80.3 ± 5.63 µM
COc1ccc(C[C@H](NC(=O)[C@H](C)NC(=O)CN2CCOCC2)C(=O)N[C@@H](CC2CCC(C(F)(F)F)CC2)C(=O)[C@@]2(C)CO2)cc1 (stereo partly drawn),PSMB6,competitive ABPP,Raji cell lysate,,,IC50,> 10 µM
Cc1ccc(S(=O)(=O)n2cc(/C=N/NC(=S)NC3CCCCC3)c3ccccc32)cc1,mushroom tyrosinase,"enzyme activity, inhibitor",,together with: L-DOPA substrate,,IC50,61.8 ± 1.47 µM
O=S1(=O)O[C@@H]2[C@H](O)[C@@H](O)[C@H](O)[C@@H](CO)[C@@H]2O1,"Oligosaccharide 4-alpha-D-glucosyltransferase (agd31B, Cellvibrio japonicus, UniProt B3PEE6)","enzyme activity, inhibitor",,"30 min preincubation, pH 6.5, 25 °C",,IC50,0.49 ± 0.02 µM
CC(C)(C)NC(=O)C[C@H](NC(=O)C(=O)c1c[nH]c2ccccc12)C(=O)NCc1cccc(B(O)O)c1,PSMB6,inhibitor,,,,IC50,> 33.3 µM
Cc1nn(C)c2ncc(C(=O)Nc3ccccc3)c(Cl)c12,"MDH2 (Sus scrofa, UniProt P00346)","enzyme activity, reporter counter-screen",,native enzyme,,IC50,> 63 µM
Cc1ccc(CNC(=S)N/N=C/c2cn(S(=O)(=O)c3ccc(C)cc3)c3ccccc23)cc1,mushroom tyrosinase,"enzyme activity, inhibitor",,together with: L-DOPA substrate,,IC50,28.6 ± 0.47 µM
CC(C)C[C@H](NC(=O)[C@@H](O)[C@H](N)Cc1ccccc1)C(=O)O,rat neuron-specific aminopeptidase,"enzyme activity, inhibitor",,,,IC50,0.2 µM
Cc1cnc(-c2ccc(-c3ccc(NC(=O)Nc4c(F)cc(F)cc4F)cc3F)c3c2C(=O)NC3)[nH]1,"CSF1R (Homo sapiens, UniProt P07333)","enzyme activity, inhibitor, mobility shift",,together with: ATP 1 mM,,IC50,0.0445 µM
CC[C@@H]1[C@H](F)C(=O)N[C@@H]1COc1nccc2cc(C(N)=O)c(OC)cc12,"GAK (Homo sapiens, UniProt O14976)","ATP-site probe binding, ActivX profiling",THP-1 cell lysate,Lys2 site,,IC50,2.9 µM
Cc1ncc(C(=O)N[C@@H](CC(C)C)C(=O)N[C@@H](CC2CCC3CCCCC3C2)C(=O)N[C@H](/C=C/S(C)(=O)=O)Cc2ccc(CN)cc2)s1 (stereo partly drawn),PSMB6,competitive ABPP,Raji cell lysate,,,IC50,> 10 µM
O=C(Nc1cccc(C(F)(F)F)c1)N1CCN(c2cccc(C(F)(F)F)c2)CC1,"CatSper channel complex (Homo sapiens, UniProt Q7RTX7+Q86XQ3+Q8NEC5+Q96P56)","calcium influx, inhibitor, FLIPR",human sperm,"together with: high pH, high potassium",,IC50,9.2 µM
Cc1nc(F)ccc1-c1cc(Cn2ccn(C)c2=N)cc(C(=O)NCc2ccc(Cl)c(Cl)c2)c1,"WD repeat-containing protein 5, MLL2 complex (WDR5, Homo sapiens, UniProt P61964)","MLL2 methyltransferase activity, inhibitor",,together with: H3 peptide substrate,,IC50,9.7 µM
COc1ccc(C[C@H](NC(=O)[C@H](C)NC(=O)CN2CCOCC2)C(=O)N[C@H](C(=O)[C@@]2(C)CO2)C2CCCCC2)cc1,PSMB6,competitive ABPP,Raji cell lysate,,,IC50,> 10 µM
CCn1c(-c2nc3ccc(C(=O)N4CCCC(N)C4)cc3n2C)cc2ccccc21 (stereo not drawn),"HTR1B (Homo sapiens, UniProt P28222)","antagonist, GTPγS binding",,,,IC50,> 31.6 µM
C=CC(=O)N1CCC(CNc2ncnc(N)c2-c2ccc(Oc3ccccc3)cc2)CC1,CSK,,,,,IC50,> 5 µM

# For quick reference, copied from above:
SMILES,target,test,system,conditions,scale,endpoint,value
Cc1ccc(S(=O)(=O)n2cc(/C=N/NC(=S)NC3CCCCC3)c3ccccc32)cc1,mushroom tyrosinase,"enzyme activity, inhibitor",,together with: L-DOPA substrate,,IC50,61.8 ± 1.47 µM
OC1CCN(c2ccc(/C=N/NC(=S)NCc3ccccc3)cc2)CC1,CA1,"enzyme activity, inhibitor",,,,IC50,0.545 µM
Cc1ccc(CNC(=S)N/N=C/c2cn(S(=O)(=O)c3ccc(C)cc3)c3ccccc23)cc1,mushroom tyrosinase,"enzyme activity, inhibitor",,together with: L-DOPA substrate,,IC50,28.6 ± 0.47 µM
C#CCC(N)C(=O)O (racemic),"cystathionine gamma-lyase (Toxoplasma gondii, UniProt A0A125YN40)","cysteine formation, inhibitor, HPLC",,,,IC50,20 ± 4 µM
Cc1ccc(S(=O)(=O)n2cc(/C=N/NC(=S)Nc3cccc([N+](=O)[O-])c3)c3ccccc32)cc1,mushroom tyrosinase,"enzyme activity, inhibitor",,together with: L-DOPA substrate,,IC50,6.4 ± 0.21 µM
